Measurements of several laboratories.
Each numbered part is a random draw from the data of one study; scales do not carry over between parts. “And” joins repeats or separate records; there may be more than shown.
UniProt Q5XXA6, sequence (whole entry, unmodified, looked up): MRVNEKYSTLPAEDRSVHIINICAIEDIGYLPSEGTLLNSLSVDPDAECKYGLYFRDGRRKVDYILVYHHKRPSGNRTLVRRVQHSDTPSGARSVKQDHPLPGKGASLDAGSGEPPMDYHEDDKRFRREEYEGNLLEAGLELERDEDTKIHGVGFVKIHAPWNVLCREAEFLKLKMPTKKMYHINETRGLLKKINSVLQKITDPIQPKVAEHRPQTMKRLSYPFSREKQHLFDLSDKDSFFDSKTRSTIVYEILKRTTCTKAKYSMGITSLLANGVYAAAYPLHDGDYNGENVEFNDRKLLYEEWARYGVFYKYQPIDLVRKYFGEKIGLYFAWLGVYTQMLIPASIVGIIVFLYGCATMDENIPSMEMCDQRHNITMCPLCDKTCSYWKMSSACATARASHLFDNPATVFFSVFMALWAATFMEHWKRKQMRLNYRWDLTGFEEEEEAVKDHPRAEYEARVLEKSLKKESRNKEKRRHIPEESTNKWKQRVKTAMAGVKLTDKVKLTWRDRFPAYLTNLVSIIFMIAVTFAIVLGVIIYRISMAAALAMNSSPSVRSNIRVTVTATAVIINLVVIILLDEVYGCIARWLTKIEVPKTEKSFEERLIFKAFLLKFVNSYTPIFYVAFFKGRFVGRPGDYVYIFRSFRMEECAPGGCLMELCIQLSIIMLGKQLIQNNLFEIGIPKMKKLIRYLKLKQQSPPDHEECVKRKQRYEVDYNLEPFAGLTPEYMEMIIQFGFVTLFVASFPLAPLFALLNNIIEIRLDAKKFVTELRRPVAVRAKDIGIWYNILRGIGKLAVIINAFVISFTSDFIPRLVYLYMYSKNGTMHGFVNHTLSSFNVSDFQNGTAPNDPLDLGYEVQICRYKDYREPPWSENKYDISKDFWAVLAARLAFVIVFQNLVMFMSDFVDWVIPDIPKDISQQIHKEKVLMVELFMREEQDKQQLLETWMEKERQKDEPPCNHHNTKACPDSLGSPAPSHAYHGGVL
UniProt Q59H18, sequence (whole entry, looked up): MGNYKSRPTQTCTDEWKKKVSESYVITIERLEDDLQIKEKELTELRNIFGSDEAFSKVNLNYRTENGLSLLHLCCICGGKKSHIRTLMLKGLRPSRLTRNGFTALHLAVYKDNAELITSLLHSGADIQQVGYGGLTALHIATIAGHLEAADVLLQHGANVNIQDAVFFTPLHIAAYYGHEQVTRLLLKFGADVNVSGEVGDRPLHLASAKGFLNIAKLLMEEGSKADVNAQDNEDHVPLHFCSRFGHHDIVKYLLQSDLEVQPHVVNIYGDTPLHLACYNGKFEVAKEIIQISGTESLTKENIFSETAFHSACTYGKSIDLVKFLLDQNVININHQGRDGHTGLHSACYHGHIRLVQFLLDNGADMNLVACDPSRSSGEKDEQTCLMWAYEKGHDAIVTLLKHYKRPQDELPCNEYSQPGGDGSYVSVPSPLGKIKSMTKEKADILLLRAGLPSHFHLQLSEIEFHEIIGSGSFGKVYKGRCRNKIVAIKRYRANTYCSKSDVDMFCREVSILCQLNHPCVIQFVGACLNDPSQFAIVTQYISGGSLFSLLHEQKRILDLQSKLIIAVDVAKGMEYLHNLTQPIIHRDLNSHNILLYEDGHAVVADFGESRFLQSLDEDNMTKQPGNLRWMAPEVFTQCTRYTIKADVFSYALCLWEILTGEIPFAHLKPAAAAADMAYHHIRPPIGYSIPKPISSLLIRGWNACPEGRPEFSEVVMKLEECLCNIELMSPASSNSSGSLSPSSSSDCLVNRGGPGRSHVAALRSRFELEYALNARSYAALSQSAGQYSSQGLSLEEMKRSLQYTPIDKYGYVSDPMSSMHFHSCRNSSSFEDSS
UniProt P27037, sequence (whole entry, looked up): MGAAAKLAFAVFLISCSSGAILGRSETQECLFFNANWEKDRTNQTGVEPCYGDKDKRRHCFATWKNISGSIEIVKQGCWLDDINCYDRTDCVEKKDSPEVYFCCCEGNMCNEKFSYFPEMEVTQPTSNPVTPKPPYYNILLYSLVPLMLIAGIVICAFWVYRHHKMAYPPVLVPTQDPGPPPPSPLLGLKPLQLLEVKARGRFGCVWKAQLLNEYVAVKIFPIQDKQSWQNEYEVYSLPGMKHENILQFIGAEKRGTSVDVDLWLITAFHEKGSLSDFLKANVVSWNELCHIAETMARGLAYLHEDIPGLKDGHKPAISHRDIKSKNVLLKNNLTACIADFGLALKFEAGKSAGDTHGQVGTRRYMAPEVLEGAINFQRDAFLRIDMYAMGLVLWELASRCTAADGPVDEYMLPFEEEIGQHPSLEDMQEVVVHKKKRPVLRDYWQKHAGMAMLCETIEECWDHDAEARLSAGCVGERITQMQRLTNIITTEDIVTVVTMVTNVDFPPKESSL
UniProt Q8WU08, sequence (whole entry, looked up): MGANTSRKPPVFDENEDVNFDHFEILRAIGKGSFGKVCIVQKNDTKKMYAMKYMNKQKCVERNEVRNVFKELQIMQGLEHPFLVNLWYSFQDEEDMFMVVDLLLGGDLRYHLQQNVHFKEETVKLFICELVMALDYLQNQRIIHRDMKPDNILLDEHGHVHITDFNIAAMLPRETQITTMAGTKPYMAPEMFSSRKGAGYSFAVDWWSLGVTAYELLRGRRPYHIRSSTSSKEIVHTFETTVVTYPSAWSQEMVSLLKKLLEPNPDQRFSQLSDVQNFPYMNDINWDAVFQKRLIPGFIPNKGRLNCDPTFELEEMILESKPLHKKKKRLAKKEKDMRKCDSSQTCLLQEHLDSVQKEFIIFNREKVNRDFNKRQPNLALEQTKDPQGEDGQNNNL
UniProt Q8NEB9, sequence (whole entry, looked up): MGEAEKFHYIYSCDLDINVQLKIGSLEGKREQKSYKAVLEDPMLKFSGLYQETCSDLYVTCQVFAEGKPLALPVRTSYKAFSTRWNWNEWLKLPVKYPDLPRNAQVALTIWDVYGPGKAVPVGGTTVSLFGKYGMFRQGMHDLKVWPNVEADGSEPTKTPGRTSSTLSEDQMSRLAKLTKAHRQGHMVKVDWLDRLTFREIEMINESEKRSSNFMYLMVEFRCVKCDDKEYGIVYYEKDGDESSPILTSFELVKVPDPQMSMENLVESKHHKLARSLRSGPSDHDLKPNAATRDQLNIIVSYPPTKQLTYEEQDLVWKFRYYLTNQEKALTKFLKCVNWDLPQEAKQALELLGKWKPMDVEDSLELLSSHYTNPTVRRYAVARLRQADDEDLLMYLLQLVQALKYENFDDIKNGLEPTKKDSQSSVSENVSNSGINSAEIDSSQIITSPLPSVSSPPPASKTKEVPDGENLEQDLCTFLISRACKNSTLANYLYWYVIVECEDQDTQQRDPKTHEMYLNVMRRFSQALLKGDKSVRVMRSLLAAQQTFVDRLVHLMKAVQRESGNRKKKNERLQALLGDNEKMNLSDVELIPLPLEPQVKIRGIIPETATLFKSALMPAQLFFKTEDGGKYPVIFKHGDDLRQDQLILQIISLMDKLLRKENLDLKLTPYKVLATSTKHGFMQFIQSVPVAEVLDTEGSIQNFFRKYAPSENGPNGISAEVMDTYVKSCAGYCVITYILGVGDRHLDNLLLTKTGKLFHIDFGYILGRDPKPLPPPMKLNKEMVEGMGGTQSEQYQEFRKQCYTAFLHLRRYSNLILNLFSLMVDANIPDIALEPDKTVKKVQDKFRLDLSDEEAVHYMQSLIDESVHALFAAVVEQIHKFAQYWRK
UniProt P51451, sequence (whole entry, looked up): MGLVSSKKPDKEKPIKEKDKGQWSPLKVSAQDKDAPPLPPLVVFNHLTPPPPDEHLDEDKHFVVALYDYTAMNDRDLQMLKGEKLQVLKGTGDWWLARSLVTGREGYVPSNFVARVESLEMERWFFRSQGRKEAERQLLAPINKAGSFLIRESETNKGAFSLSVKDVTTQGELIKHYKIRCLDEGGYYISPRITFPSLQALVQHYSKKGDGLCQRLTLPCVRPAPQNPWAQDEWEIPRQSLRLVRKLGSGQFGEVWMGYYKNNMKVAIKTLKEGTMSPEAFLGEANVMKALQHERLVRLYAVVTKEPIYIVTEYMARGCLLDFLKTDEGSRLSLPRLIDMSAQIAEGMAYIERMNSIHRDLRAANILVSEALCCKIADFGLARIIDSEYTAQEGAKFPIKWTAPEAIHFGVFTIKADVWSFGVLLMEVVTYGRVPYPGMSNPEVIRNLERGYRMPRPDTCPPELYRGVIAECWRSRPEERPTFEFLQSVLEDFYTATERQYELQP
UniProt P49760, sequence (whole entry, looked up): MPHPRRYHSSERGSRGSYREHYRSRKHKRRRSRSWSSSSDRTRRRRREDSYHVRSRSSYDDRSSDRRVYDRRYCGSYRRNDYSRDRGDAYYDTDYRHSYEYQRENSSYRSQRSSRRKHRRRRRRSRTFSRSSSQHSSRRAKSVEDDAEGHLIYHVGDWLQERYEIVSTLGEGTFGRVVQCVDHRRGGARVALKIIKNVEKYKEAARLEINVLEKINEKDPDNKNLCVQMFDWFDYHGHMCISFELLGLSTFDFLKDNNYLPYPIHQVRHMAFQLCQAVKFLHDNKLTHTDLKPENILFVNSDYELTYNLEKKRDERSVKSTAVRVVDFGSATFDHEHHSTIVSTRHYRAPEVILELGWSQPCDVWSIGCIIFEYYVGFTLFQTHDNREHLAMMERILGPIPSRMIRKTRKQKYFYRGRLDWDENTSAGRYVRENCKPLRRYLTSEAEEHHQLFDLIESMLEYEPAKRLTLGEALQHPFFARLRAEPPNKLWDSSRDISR
UniProt P49137, sequence (whole entry, looked up): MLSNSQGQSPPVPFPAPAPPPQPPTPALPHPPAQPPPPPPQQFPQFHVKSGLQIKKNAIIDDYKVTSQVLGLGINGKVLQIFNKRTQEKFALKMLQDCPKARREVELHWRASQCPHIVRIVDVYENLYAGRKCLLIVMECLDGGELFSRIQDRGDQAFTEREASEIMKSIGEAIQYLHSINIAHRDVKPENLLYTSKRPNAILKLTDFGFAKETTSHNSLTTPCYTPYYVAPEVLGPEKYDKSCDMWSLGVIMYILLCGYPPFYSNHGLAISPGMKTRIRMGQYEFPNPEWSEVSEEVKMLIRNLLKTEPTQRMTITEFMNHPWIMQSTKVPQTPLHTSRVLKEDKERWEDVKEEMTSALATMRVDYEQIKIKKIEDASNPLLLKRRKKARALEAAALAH

Series 1
SMILES: C=CCc1ccc(O)c(-c2ccc(O)c(CC=C)c2)c1
Observed: chloride current
Technique: whole-cell voltage clamp
target | test | setting | IC50
Anoctamin-1 (ANO1, Homo sapiens, UniProt Q5XXA6, del476-501/F807I) | inhibitor | F781I mutant at 80 mV | 6.91 µM
Anoctamin-1 (ANO1, Homo sapiens, UniProt Q5XXA6, del476-501/F646A) |  | membrane voltage -80 mV | 5.85 µM
Anoctamin-1 (ANO1, Homo sapiens, UniProt Q5XXA6, del476-501/F807A) |  | membrane voltage 80 mV | 17.9 µM

Series 2
Target: Hepatocyte nuclear factor 3-alpha (Foxa1, Mus musculus, UniProt P35582, residues 1-468, full length assumed)
Technique: EMSA with sequencing
Molecule type: double-stranded DNA, one strand shown
Matrix: in vitro
Concentration: 10 and 20 nM
Setting: whole designed probe, mean of two concentrations, ends assumed
Baseline: negative control set to 0
Direction: higher = stronger binding
Constant ends, left off below: GTGAGCGGTGCCCATTGATGGGGAAC … TTTCACTGGGATCGTGGGGAC
Residues (chain): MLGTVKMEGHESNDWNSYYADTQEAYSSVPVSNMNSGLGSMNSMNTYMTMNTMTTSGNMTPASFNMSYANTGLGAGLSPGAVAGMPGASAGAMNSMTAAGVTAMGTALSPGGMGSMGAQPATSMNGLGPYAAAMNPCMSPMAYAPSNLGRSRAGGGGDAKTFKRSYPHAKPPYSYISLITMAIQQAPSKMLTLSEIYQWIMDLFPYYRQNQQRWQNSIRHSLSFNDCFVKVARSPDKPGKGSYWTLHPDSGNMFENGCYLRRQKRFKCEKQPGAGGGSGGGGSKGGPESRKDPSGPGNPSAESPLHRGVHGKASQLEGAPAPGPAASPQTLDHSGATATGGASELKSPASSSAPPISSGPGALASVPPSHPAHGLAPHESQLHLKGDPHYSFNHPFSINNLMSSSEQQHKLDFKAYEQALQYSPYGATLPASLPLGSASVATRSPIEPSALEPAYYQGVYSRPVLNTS
Strand | normalised bound fraction [ratio]
ACCCCTGAACTTAAATAAAAGTTAACAAACCCCACAAATCCCTACATGAAAAGACAGGGCTAATTAGCTAATTGGTAGTAATACTATTAGCAGTGTTTACTGAGTGCTTGTATCAGCCAGACACTGGTCTCAGAGCTTGAGATGCTTTAGCTCATTAAGTTAATTGGCCCATGAGTTGGGTACCATTACTGCC | 0.216
TCTGGATTTTTGGTACCATGTGGTTCTCAGGGCCTCCAAATAAAGTCAATCTGATTAGCACTGATCACCCAAATAATAAAAAAATTAGTACTTGTTTACTTTTTTAGGGAGGAATTCTCTTTATTTTCCCCCATCCCACATCTTTTTAATTGTCAGCTCTTTTAAAAATTATAAAAGTGCCAGTTGGCCATCT | 0.412
AAAACAAACAAATAAAACAACTAGTATGGAAGCTAGAATAATGTGATGCACCATTACACCAAATATTCAGTCTTAACATGGTTTTTAATATTATGTAATCTTGGAAGGTATTGCCATTGTTCATATGATACAGAATCAATGGCACTCACAAGCATCTGAATATGTTGAAAAATGGCACCTTCAAATAAAAATT | 0.404
ATCTTCCCCCTCTTCCTTGCCCCACCAGCTCACCTTCCCGGGTTATTTGCAGATAGGAAAATAAATAAAGCCGGCATTCGTTAACCCTCTTCTGGCGCAAACTGCTGTTTGCTCTGGAGTCTCTATTGGCGGTAAGTCACGCCAGGCTCCGGGAGAGCAAAGCACCGTGTCAGGGCCATGATCCGGGGTGGCC | 0.367
TACAGACTCACATTCACCTTGCGCCACACTACCTTTACGGTATAGTGAACTCCTTTCAGTCCCTTTCTTTCACAATAGTCTGCATAATCTAAGTAAACAGGAGACTTGTGTCTTTCACTGTTCCTAGACACTTCGCAACTAATATATTGCTTGCATATAGACACTAGATATCTCTGAATAAATCAACAGAAGA | 0.39
ATGTACTTTGGAAACAACTAACCAGGTGTATGTTTTTCGAAGTGTTAATGATTGCTAGGTTGTGACACTGAAATCAGTAAAACACGAATCAAATATTTACACATACCTTCCATGCAGTGTATTTTCCATCATGGGAAGGTATTGGGCAATGGAAAATTTCTCAAATACTTTTACTGGAAGAGACAAATTAGGC | 0.157
CTGAGGCGCTGCAGGCCCGGCTTCTGGCTGCGGGGGAGCTGTACCCTGAAGCCTCGCCGGAACTCGCGTCTGGGGCCAGCAGGGGGCACTAGAGTCAACAGGGACTGTATGCAAAACCCACTTCCTCCCAGGCCCTCTAGGGGGATGGTCAGGCTTCTGCAGAGATGGGGAGGATCCTTTCCTGGTAAGGGGA | 0.013
TTGAGTTTTTTCCACTTTTTGACTACTATGAATAATGCTTCTGTAATCTTTCTTGTACAAGTTTCTTTGGGAAATATTTTTTCAGTTCTCCTGAGAGTACTTAGGAGTTGAATTGCTGAGTCATGTGGTAACTATGTTTAGCTTTTTGAGGAACTGCCAAACTATTTTCCAAAATGACTGCACCATTTTACAA | -0.0435

Series 3
Host: mouse
Matrix: microsomes or S9
Concentration: 2 µM
Time: 0.5 h
Compound | remaining compound [%]
CN(C(=O)CN1C(=O)COc2cc(Cl)c(Cl)cc21)C(CN1CCCC1)c1ccc(Br)cc1 (centres unmarked) | > 100
OC(Cn1cnc2ccccc21)Cn1c2ccccc2c2ccccc21 (centres unmarked) | 0.0164
NCC1Cc2cc(F)cc(-c3ccnc4c(C(F)(F)F)cccc34)c2O1 (centres unmarked) | 97.4

Series 4
SMILES: Cc1cc(NC(=O)c2cccc(S(F)(F)(F)(F)F)c2)cc(-n2ccn3nc(-c4cccnc4)cc23)c1
Observed: cell-free assay
Technique: competition with immobilised ligand
Concentration: 1 µM
target | remaining binding [%]
Ephrin type-B receptor 2 (EPHB2, Homo sapiens, UniProt P29323) | 100
Tyrosine-protein kinase Blk (BLK, Homo sapiens, UniProt P51451) | 100
Cyclin-dependent kinase 2 (CDK2, Homo sapiens, UniProt P24941) | 100
Proto-oncogene tyrosine-protein kinase receptor Ret (RET, Homo sapiens, UniProt P07949, M918T) | 100
MAP kinase-activated protein kinase 5 (MAPKAPK5, Homo sapiens, UniProt Q8IW41) | 100
Dual specificity protein kinase CLK2 (CLK2, Homo sapiens, UniProt P49760) | 100
Vascular endothelial growth factor receptor 2 (KDR, Homo sapiens, UniProt P35968) | 68.3
Serine/threonine-protein kinase TNNI3K (TNNI3K, Homo sapiens, UniProt Q59H18) | 100
Serine/threonine-protein kinase Nek7 (NEK7, Homo sapiens, UniProt Q8TDX7) | 100
Activin receptor type-2A (ACVR2A, Homo sapiens, UniProt P27037) | 100
MAP kinase-activated protein kinase 2 (MAPKAPK2, Homo sapiens, UniProt P49137) | 100
Platelet-derived growth factor receptor beta (PDGFRB, Homo sapiens, UniProt P09619) | 100
Serine/threonine-protein kinase PAK 1 (PAK1, Homo sapiens, UniProt Q13153) | 90.9
Phosphatidylinositol 3-kinase catalytic subunit type 3 (PIK3C3, Homo sapiens, UniProt Q8NEB9) | 76.6
Serine/threonine-protein kinase Nek4 (NEK4, Homo sapiens, UniProt P51957) | 92.9
Serine/threonine-protein kinase WNK4 (WNK4, Homo sapiens, UniProt Q96J92) | 100
Leukocyte tyrosine kinase receptor (LTK, Homo sapiens, UniProt P29376) | 100
Serine/threonine-protein kinase Nek6 (NEK6, Homo sapiens, UniProt Q9HC98) | 97
Wee1-like protein kinase 2 (WEE2, Homo sapiens, UniProt P0C1S8) | 100
Serine/threonine-protein kinase 32A (STK32A, Homo sapiens, UniProt Q8WU08) | 100

Other studies, line by line
HNRNPD: HNRNPD (Homo sapiens, UniProt Q14103)
Molecule | target or system | test | test system | setting | scale | measurement | value
EXOSC10 (Homo sapiens, UniProt Q01780) | C1D (Homo sapiens, UniProt Q13901) | cross-linking MS | cell fractions | added: DMTMM |  | cross-linked residues | E23 to K46
O=C(c1ccc(F)cc1)C1CCN(CCn2c(=S)[nH]c3ccccc3c2=O)CC1 | mouse MPNST tumor cells | high-content immunofluorescence imaging, measured: nuclear SOX9 |  | 10 µM, 12 h, mean of 2 replicates | baseline: DMSO control, higher = more nuclear SOX9 | nuclear SOX9 intensity | 101 % of DMSO
HNRNPA2B1 (Homo sapiens, UniProt P22626) | HNRNPD | cross-linking MS |  | hits only |  | interaction screen | cross-linked
COc1ccc(-c2c(Nc3ccccn3)[nH]c3c(C4=CCCCC4)c(-c4ccccc4)nn3c2=O)cc1 |  |  | human patients, plasma | oral, 150 mg once daily, day 15, cycle 1, tau 24 h |  | AUC(0-tau) geometric mean | 93600 ng·h/mL
P4HB (Homo sapiens, UniProt P07237) | ARMCX4 (Homo sapiens, UniProt Q5H9R4) | cross-linking MS | cell fractions | added: DMTMM |  | cross-linked residues | D83 to K189
COc1ccc(C[C@@H]2c3cc(OC)c(OC)cc3CC[N@+]2(C)CCC(=O)OCCCCCOC(=O)CC[N@@+]2(C)CCc3cc(OC)c(OC)cc3[C@H]2Cc2ccc(OC)c(OC)c2)cc1OC | mouse MPNST tumor cells | high-content immunofluorescence imaging, measured: nuclear SOX9 |  | 10 µM, 12 h, mean of 2 replicates | baseline: DMSO control, higher = more nuclear SOX9 | nuclear SOX9 intensity | 77.1 % of DMSO and 89.8 % of DMSO
CC(C)S(=O)(=O)c1ccc2nccc(Nc3ccc4sc(C5CCCC5)nc4c3)c2c1 |  | CCK-8 | L929 RIPK3 knockout, mouse | MEM with 10% FBS |  | CC50 | 56.7 µM and 59.6 µM
HNRNPU (Homo sapiens, UniProt Q00839) | HNRNPD | cross-linking MS |  | hits only |  | interaction screen | cross-linked
NCCCC(N)(C(=O)O)C(F)F (centres unmarked) | mouse MPNST tumor cells | high-content immunofluorescence imaging, measured: nuclear SOX9 |  | 10 µM, 12 h, mean of 2 replicates | baseline: DMSO control, higher = more nuclear SOX9 | nuclear SOX9 intensity | 78.4 % of DMSO
CC(C)n1cnc(-c2ccc(F)cc2)c1-c1ncc(C(=O)Nc2ccc(N3CCN(C)CC3)cc2)[nH]1 |  |  | IPF patients | 60 mg once daily, adverse event |  | left bundle branch block incidence | 0%

A few entries again (series 4):
target | remaining binding [%]
Vascular endothelial growth factor receptor 2 (KDR, Homo sapiens, UniProt P35968) | 68.3
Wee1-like protein kinase 2 (WEE2, Homo sapiens, UniProt P0C1S8) | 100
MAP kinase-activated protein kinase 5 (MAPKAPK5, Homo sapiens, UniProt Q8IW41) | 100
Dual specificity protein kinase CLK2 (CLK2, Homo sapiens, UniProt P49760) | 100
Proto-oncogene tyrosine-protein kinase receptor Ret (RET, Homo sapiens, UniProt P07949, M918T) | 100
Serine/threonine-protein kinase Nek6 (NEK6, Homo sapiens, UniProt Q9HC98) | 97
Serine/threonine-protein kinase Nek4 (NEK4, Homo sapiens, UniProt P51957) | 92.9
